Assay results pooled from the literature.
Every numbered part comes from another study and shows a few of its results, in no order. Substitutions count along the parent as printed.

Set 1 — method: protein binding microarray; molecule type: double-stranded DNA, one strand shown; sample: in vitro; tested at: not given; reference: not given; reading: higher = stronger binding; measurement: E-score
Target: Histone acetyltransferase KAT6A, winged helix 1, GST fusion (KAT6A, Homo sapiens, UniProt Q92794, residues 1-85)
Setting: 8-mer, flanks averaged, mean of 2 arrays, mostly near background
Target sequence (chain): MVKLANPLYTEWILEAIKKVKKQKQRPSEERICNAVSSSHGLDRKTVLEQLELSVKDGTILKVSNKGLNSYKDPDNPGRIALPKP
CTAGTTAC: 0.0773
CCCAATAC: -0.0713
ATGCGGAA: 0.132
CCTCGCTA: 0.0788
GGCCATTA: -0.0479
AGAGAAAG: -0.28
CGCCAGTC: 0.207
GAAGGAAC: 0.066
AGAAGAAC: -0.0799
CCCCTTGC: -0.162
CGCGTTCA: 0.317
TCGAATAA: -0.145
AACAAGGC: -0.174
CTCTGTAA: -0.0452
ATTTCAGC: -0.185
AGCACCTC: -0.0768
CGTCAACG: 0.086
GATTCGCC: -0.0272
ATACCTTG: -0.122
CTATCCTA: -0.135
AACCCATA: -0.188
TACGATCA: -0.0901
AACCCTTG: 0.0432
AGGTTGTC: -0.247
AAAGGAAC: -0.186

Set 2 — method: DHFR PCA, deep sequencing; sample: yeast; added: (+)-ABA 0.11 µM; reference: wild-type fitted maximum; reading: higher = stronger binding; measurement: relative binding score
Target: ABI1, truncated, D143A, DHFR fusion (Arabidopsis thaliana)
Setting: methotrexate growth selection, single substitutions
Parent: PYL1, truncated, DHFR fusion (Arabidopsis thaliana); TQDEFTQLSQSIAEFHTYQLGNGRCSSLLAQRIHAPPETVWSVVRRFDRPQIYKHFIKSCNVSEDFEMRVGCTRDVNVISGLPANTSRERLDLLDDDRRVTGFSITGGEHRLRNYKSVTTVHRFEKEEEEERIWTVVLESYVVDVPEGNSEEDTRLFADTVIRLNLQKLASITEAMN; partner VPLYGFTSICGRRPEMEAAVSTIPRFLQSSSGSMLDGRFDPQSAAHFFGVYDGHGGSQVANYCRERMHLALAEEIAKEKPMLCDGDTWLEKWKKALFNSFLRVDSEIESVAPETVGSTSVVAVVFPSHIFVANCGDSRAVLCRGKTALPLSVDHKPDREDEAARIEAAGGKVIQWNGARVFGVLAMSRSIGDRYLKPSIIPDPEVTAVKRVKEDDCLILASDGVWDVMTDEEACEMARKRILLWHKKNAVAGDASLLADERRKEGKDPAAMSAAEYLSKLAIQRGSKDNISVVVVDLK
P146R: 3.09%
R45Y: -13.1%
T1W: 29.8%
D48Y: 3.71%
C25H: -1.53%
Q2N: 29.9%
C60N: 2.07%
R163G: 11.8%

Set 3 — method: universal PBM; molecule type: double-stranded DNA, one strand shown; sample: in vitro; tested at: 600 nM; reading: higher = stronger binding; measurement: E-score
Target: Sal-like protein 4, full length isoform A (SALL4, Homo sapiens, UniProt Q9UJQ4, residues 1-1053)
UniProt Q9UJQ4, sequence (whole entry, looked up): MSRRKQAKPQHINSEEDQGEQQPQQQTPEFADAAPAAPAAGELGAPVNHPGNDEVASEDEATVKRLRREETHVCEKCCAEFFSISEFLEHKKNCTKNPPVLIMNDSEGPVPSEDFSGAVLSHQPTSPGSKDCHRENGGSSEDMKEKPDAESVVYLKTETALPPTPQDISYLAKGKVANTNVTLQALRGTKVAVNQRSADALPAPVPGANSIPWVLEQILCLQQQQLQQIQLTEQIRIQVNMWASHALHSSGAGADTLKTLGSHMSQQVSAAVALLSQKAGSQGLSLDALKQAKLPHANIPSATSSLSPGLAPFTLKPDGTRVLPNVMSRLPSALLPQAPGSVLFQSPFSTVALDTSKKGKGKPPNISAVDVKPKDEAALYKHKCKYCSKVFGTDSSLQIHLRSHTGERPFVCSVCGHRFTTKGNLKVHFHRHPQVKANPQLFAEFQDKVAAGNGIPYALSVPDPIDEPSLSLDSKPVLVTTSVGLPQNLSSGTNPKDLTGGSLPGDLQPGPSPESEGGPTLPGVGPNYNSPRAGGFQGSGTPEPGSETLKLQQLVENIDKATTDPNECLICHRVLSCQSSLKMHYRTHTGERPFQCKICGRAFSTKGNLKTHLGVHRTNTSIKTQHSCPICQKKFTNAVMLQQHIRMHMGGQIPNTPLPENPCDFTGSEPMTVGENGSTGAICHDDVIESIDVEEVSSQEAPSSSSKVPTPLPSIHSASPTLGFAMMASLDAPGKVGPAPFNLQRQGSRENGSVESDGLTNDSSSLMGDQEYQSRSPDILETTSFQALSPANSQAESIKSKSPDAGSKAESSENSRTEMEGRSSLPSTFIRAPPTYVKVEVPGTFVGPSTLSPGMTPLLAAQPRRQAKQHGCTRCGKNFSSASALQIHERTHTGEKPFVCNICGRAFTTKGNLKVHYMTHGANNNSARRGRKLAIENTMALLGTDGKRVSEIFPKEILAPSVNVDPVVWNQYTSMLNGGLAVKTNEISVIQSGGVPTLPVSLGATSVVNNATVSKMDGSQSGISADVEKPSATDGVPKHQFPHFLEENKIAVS
Setting: 8-mer, flanks averaged, mean of replicates
CAGTCCTC: -0.0746
CCCGCCGG: -0.396
GGTTTTAC: 0.0062
CTTCTGAA: 0.179
AATTACTG: 0.199
GGCATCCA: -0.14
CTTGCGAA: 0.136
ACTATTAT: 0.366
AAGGAGGC: -0.261
CGTTTAAG: 0.0377
AACTCGCG: -0.149
GCATTTAC: 0.105
ACCATTAC: 0.114
GACTCAGA: -0.122
CGCCTTTA: 0.0132
CAGACTCC: -0.285
TCCTAGGA: -0.182
AGACGTGC: -0.0977
GCTAGAGA: 0.0132
CACAACGA: 0.116
ATCCGCAA: -0.0118

Set 4 — method: protein-binding microarray; molecule type: double-stranded DNA, one strand shown; sample: in vitro; tested at: 2540 nM top; setting: 60-bp whole probe; added: salmon DNA 0.4 mg/ml; reference: random background probes; reading: higher = stronger binding; measurement: fitted relative affinity; constant ends, left off below: GCCTAGCAC … GTCTTGATTCGCTTGACGCTGCTG
Target: Interferon regulatory factor 3, full length, phosphomimetic (IRF3, Homo sapiens, UniProt Q14653, residues 1-427, S386D/S396D/S398D/S402D/T404D/S405D)
UniProt Q14653, sequence (whole entry, unmodified, looked up): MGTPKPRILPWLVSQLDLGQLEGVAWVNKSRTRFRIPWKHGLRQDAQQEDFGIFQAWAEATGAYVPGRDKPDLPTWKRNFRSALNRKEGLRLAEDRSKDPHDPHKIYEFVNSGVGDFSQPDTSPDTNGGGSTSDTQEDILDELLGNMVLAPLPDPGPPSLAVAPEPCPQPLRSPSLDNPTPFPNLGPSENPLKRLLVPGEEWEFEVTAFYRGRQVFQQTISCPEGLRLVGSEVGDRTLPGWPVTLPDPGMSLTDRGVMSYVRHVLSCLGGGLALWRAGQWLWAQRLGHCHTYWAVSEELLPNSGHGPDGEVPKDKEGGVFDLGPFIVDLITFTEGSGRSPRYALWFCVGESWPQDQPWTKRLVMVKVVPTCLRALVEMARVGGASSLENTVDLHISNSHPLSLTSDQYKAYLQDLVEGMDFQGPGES
TGCTGGTTTTGTGGTCTAATGTGCTAG: -0.454 z-score
GACAGTATCCTACTGCTGACGTGCTAG: 3.5 z-score
TCAGGTTTCGGGTTTCGGTTAGTGCTA: 6.44 z-score
TACAGGATGGTTTTCAGAGAGTGCTAG: 0.0206 z-score
GACGGTCTCGGTCACGGGACGTGCTAG: 0.21 z-score
CTCTACATGTGTTTAAGAATGTGCTAG: -0.0371 z-score
GACCGTATCCTTCTCCTGACGTGCTAG: 6.51 z-score
TTAGGTATCGAGTATCGGTTAGTGCTA: 1.38 z-score
TTATGTATCCTTTTCCTTTAGTGCTAG: 8.36 z-score
TTAGAACTGAGTCTCGATTAGTGCTAG: -0.416 z-score
GACGGTATCCACACTGGGGACGTGCTA: 1.86 z-score
TCATTTCTCTTATTCTAACTGTGCTAG: 2.84 z-score
GACGGACTGGGTCTCGGCACGTGCTAG: -0.846 z-score
TTAGATCTCAGTATCGTTTAGTGCTAG: 1.31 z-score
TTAGGTCTCCTACTGCTCTAGTGCTAG: 0.687 z-score
TTAGGATTCGGTTCCGGTTAGTGCTAG: 5.96 z-score
TGGCACCTCTAGACTCTAAATGTGCTA: -0.92 z-score
GACGGTTTCGGGTTTCGGGATGTGCTA: 5.96 z-score
TCACCTTTCGGAATACCACTGTGCTAG: 3.72 z-score
TCATTTTCCCCCCTCACACTGTGCTAG: 3.05 z-score
TCAACTTTCTTTAACATACTGTGCTAG: 1.26 z-score
TTAGGTATCGGACTGGGGTAGTGCTAG: 1.11 z-score
GACGATCTCAAACTGGAGACGTGCTAG: 0.571 z-score
AAAGATATAAATGTAACATGGTGCTAG: -0.236 z-score

Set 5 — target: CCNA2, cyclin fold, Cln2 fusion (human); method: yeast growth competition, sequencing; sample: yeast; setting: strong parent motif; reference: not given; reading: higher = stronger binding; measurement: normalised enrichment score
Parent: SAMHD1 docking peptide (human); ASKSRVQLFKDDP; partner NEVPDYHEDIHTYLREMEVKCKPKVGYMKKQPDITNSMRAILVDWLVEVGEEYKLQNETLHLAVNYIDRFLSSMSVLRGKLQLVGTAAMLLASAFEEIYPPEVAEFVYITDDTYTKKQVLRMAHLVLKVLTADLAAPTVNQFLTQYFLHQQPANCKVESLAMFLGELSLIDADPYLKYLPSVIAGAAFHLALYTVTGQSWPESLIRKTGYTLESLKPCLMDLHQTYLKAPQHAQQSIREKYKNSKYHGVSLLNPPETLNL
ASKSRVELFKDDP [Q7E]: 1.57
ASQSRVQLFKDDP [K3Q]: 0.743
ASKSRGQLFKDDP [V6G]: 0.104
ASKSRWQLFKDDP [V6W]: 0.469
ASKCRVQLFKDDP [S4C]: 6.04
ASKSRVQLFKDEP [D12E]: 3.62
ASKSRVQLFKDNP [D12N]: 2.72
ASKNRVQLFKDDP [S4N]: 0.664
ASKSCVQLFKDDP [R5C]: 1.2
ADKSRVQLFKDDP [S2D]: 1.19
ASKSRVQLFKYDP [D11Y]: 1.66
ASKSRVRLFKDDP [Q7R]: 3.75
ASKSRVQLFKQDP [D11Q]: 1.95
ASKSRVVLFKDDP [Q7V]: 1.33
ASKSRVQTFKDDP [L8T]: -0.22
ASDSRVQLFKDDP [K3D]: -0.114
ASKSRVQDFKDDP [L8D]: -0.0426
ASKSRVQKFKDDP [L8K]: -0.1
ASKSRVQLFKKDP [D11K]: 1.54

Set 6 — method: two-hybrid; reference: out of 4 tests; reading: higher = firmer interaction; measurement: positive tests
Partner: ARF22 498-598 (Arabidopsis thaliana, UniProt Q9C8N7)
B1: ARF5 788-902 (Arabidopsis thaliana, UniProt P93024); chain ATPRVRTYTKVQKTGSVGRSIDVTSFKDYEELKSAIECMFGLEGLLTHPQSSGWKLVYVDYESDVLLVGDDPWEEFVGCVRCIRILSPTEVQQMSEEGMKLLNSAGINDLKTSVS
B2: IAA18 (Arabidopsis thaliana, UniProt O24408); chain MEGYSRNGEISPKLLDLMIPQERRNWFHDEKNSVFKTEEKKLELKLGPPGEEDDDESMIRHMKKEPKDKSILSLAGKYFSPSSTKTTSHKRTAPGPVVGWPPVRSFRKNLASGSSSKLGNDSTTSNGVTLKNQKCDAAAKTTEPKRQGGMFVKINMYGVPIGRKVDLSAHNSYEQLSFTVDKLFRGLLAAQRDFPSSIEDEKPITGLLDGNGEYTLTYEDNEGDKMLVGDVPWQMFVSSVKRLRVIKTSEISSALTYGNGKQEKMRR
B3: IAA34 (Arabidopsis thaliana, UniProt Q9C5X0); chain MYCSDPPHPLHLVASDKQQKDHKLILSWKKPTMDSDPLGVFPNSPKYHPYYSQTTEFGGVIDLGLSLRTIQHEIYHSSGQRYCSNEGYRRKWGYVKVTMDGLVVGRKVCVLDHGSYSTLAHQLEDMFGMQSVSGLRLFQMESEFCLVYRDEEGLWRNAGDVPWNEFIESVERLRITRRNDAVLPF
B4: ARF8 699-811 (Arabidopsis thaliana, UniProt Q9FGV1); chain NSSNQTKNFVKVYKSGSVGRSLDISRFSSYHELREELGKMFAIEGLLEDPLRSGWQLVFVDKENDILLLGDDPWESFVNNVWYIKILSPEDVHQMGDHGEGSGGLFPQNPTHL
B5: ARF20 484-590 (Arabidopsis thaliana, UniProt Q9C7I9); chain IEIQSKQFGSTRTCTKVQMQGVTIGRAVDLSVLNGYDQLILELEKLFDLKGQLQTRNQWKIAFTDSDGYEMLVGDDPWPEFCKMVKKILIYSKEEVKNLKSSKSLSS
B6: IAA12 (Arabidopsis thaliana, UniProt Q38830); chain MRGVSELEVGKSNLPAESELELGLGLSLGGGAWKERGRILTAKDFPSVGSKRSAESSSHQGASPPRSSQVVGWPPIGLHRMNSLVNNQAMKAARAEEGDGEKKVVKNDELKDVSMKVNPKVQGLGFVKVNMDGVGIGRKVDMRAHSSYENLAQTLEEMFFGMTGTTCREKVKPLRLLDGSSDFVLTYEDKEGDWMLVGDVPWRMFINSVKRLRIMGTSEASGLAPRRQEQKDRQRNNPV
Construct (chain): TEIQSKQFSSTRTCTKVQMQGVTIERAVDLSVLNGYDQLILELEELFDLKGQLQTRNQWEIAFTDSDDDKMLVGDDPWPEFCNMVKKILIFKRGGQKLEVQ
B1 (ARF5 788-902): 0
B2 (IAA18): 2
B3 (IAA34): 4
B4 (ARF8 699-811): 0
B5 (ARF20 484-590): 1
B6 (IAA12): 1

For quick reference, copied from above (set 4):
TCAGGTTTCGGGTTTCGGTTAGTGCTA: 6.44 z-score
TGGCACCTCTAGACTCTAAATGTGCTA: -0.92 z-score
AAAGATATAAATGTAACATGGTGCTAG: -0.236 z-score
TCATTTCTCTTATTCTAACTGTGCTAG: 2.84 z-score
TCAACTTTCTTTAACATACTGTGCTAG: 1.26 z-score
GACCGTATCCTTCTCCTGACGTGCTAG: 6.51 z-score
GACAGTATCCTACTGCTGACGTGCTAG: 3.5 z-score
TGCTGGTTTTGTGGTCTAATGTGCTAG: -0.454 z-score
GACGATCTCAAACTGGAGACGTGCTAG: 0.571 z-score
GACGGTCTCGGTCACGGGACGTGCTAG: 0.21 z-score
TTAGGATTCGGTTCCGGTTAGTGCTAG: 5.96 z-score
